Results pooled from the literature.
Each numbered part is a random draw from the data of one study; scales do not carry over between parts.

Block 1 — technique: protein-binding microarray; molecule type: double-stranded DNA, one strand shown; matrix: in vitro; concentration: 940 nM top; setting: 60-bp whole probe; added: salmon DNA 0.4 mg/ml; baseline: random background probes; reading: higher = stronger binding; all sequences stand within: GCCTAGCAC … GTCTTGATTCGCTTGACGCTGCTG
Target: Interferon regulatory factor 5, full length, phosphomimetic (IRF5, Homo sapiens, UniProt Q13568-2, residues 1-514, S451D/S453D/S456D/S462D)
Under “fitted relative affinity”, `TCACATGTGCTGTCTCAGACTGTGCTA` is recorded as -0.44 z-score.
`TTAGGTATCCACTATCGGTTAGTGCTA` — result for “fitted relative affinity”: 1.03 z-score.
`CCCAGGACCCTGGAACTGGCGTGCTAG`: “fitted relative affinity” -0.888 z-score.
`TCATCTGTTCTTTTCAGACTGTGCTAG`: “fitted relative affinity” 0.207 z-score.
`TTAGGACTGCGGTTTCGGTTAGTGCTA` — result for “fitted relative affinity”: 5.99 z-score.
`TCACAACTCGCCTTTTTTACTGTGCTA` — result for “fitted relative affinity”: 0.951 z-score.
Under “fitted relative affinity”, `AACGGTTCCCTTTTCCTGACGTGCTAG` is recorded as 0.71 z-score.
Under “fitted relative affinity”, `GACGGTATCGGGATCGGGACGTGCTAG` is recorded as 3.4 z-score.
Under “fitted relative affinity”, `GACGATTACAGTATCGAGACGTGCTAG` is recorded as 1.78 z-score.
`TTCGGTTTCCTTTTCCTTTAGTGCTAG`: “fitted relative affinity” 2.28 z-score.
`TTAGATATCGGGTCTGGATTAGTGCTA`: “fitted relative affinity” -0.163 z-score.
`TTAGGTATCGATTTCGGTTAGTGCTAG` — result for “fitted relative affinity”: 9.04 z-score.
`GACGGTTTCGGTACTGGGGACGTGCTA` — result for “fitted relative affinity”: 12.4 z-score.
`GACGATTTCCTTTTCCTGACGTGCTAG` — result for “fitted relative affinity”: 0.897 z-score.
For `GCCGGTCTCGGTATCGGGACGTGCTAG`, “fitted relative affinity” read 5.48 z-score.
`TTAGGTTTTGGTTCCGGTTAGTGCTAG`: “fitted relative affinity” 5.64 z-score.
`TTTGTCATCTATAATGGATATGTGCTA`: “fitted relative affinity” 0.105 z-score.
`GACGGTTTCCCTCTCCTGACGTGCTAG`: “fitted relative affinity” 1.45 z-score.
Under “fitted relative affinity”, `GACGGACTGCGTATCCTGACGTGCTAG` is recorded as -0.574 z-score.
`TTAGGTCTCGGTAACGGTTAGTGCTAG` — result for “fitted relative affinity”: 3.75 z-score.
`TTCGGTTTCGACACTGGGTTAGTGCTA` — result for “fitted relative affinity”: 7.99 z-score.
`GACGAACTGGGGTCTCGAGACGTGCTA`: “fitted relative affinity” 0.5 z-score.
For `GACGCTATCAGTTTCGAGACGTGCTAG`, “fitted relative affinity” read 3.72 z-score.

Block 2 — technique: RNA Bind-n-Seq; molecule type: RNA; matrix: in vitro; concentration: not given; baseline: input RNA pool; reading: higher = stronger binding
Target: RING finger protein unkempt homolog, zinc fingers 1-6, GST-SBP tag (UNK, Homo sapiens, UniProt Q9C0B0, residues 30-357)
Setting: RNA with constant flanks, human and mouse sites, ends assumed
All sequences stand within: GGGAGUUCUACAGUCCGACGAUC … CAACAGAGGAUUGAGCAUCA
Target sequence (chain): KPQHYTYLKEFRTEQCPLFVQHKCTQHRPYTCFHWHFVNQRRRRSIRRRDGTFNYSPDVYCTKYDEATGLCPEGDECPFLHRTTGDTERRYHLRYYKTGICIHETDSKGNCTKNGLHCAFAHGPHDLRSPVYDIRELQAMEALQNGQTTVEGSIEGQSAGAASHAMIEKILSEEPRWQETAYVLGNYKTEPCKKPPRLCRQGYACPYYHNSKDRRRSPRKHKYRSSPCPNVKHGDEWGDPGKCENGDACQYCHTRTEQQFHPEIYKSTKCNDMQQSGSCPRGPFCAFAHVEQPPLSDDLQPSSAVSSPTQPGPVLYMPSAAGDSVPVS
The bound/input enrichment of `UUCAAUGACUCUCAGCGACAGGCAACAAAAGAUGCUGGAACUAUUGCUGGCCUCAAUGUACUUCGAAUCAUCAAUGAACCAACUGCUGCUGCUAUUGCUUACGGCUUAGAUAAGAAGGUC` is reported as 0.227 ratio.
`GCUGUAAAUACUCUACUAAGUUUGGAAGAGUCUUCAGAACUUCUUCAUCUGGUUCCUGUGGGACGAGUGAAGCACUUAGUGUUGACCUUUCCAACGGAGCCAUCUGUGUUGCUGUUGGCC` gave a bound/input enrichment of 0.143 ratio.
With `CCGCUUUUUGCCGCGAGCCGACCGGUCCCGUCAUGCCGACCCGCAGUCCCAGCGUCGUGAUUAGCGAUGAUGAACCAGGUUAUGACCUAGAUUUGUUUUGUAUACCUAAUCAUUAUGCCG` the bound/input enrichment was 0.137 ratio.
For `GCAGAAUACCCCGAUGAAUAUCAUGGCGAGUACCCAGACGACUACCCUCGGGAGUACCAGUAUGGCGACGACCAGGGCAUUGAUUAUUAGAGUCACACACAGGAGCGCAGUAUUUAGUCC`, the bound/input enrichment was 0.338 ratio.
The bound/input enrichment of `GAAUGCGGGUGAUCGGCAUGGCUCGCCUGGUGCUCGGUCUGGUGAGCUGCACCUUCUUUCUAGCAGUCAGCGGUCUGUAUUCUUCUAGUGAUGAUGUCAUCGAGUUGACGCCAUCAAAUU` is reported as 0.267 ratio.
`UUUUUUUUAAAAUAGAAAAUAAAUCUGACAACAAAUACUUUAAAAAUUGUAAAUAGUUUUUAGUUUUACGACUUAAAGUGUUUUGAUGGGGAAAGUUGAUUGAAACUAUAACUGGUUUUA` has a bound/input enrichment of 6.52 ratio.
With `CCGGCCGCACAACUACCUCAGCGCAGCGGUUGCUGCAGCGGCCCCAGGGCUUUAAACUGCCAUAGGGCGCCCCCUUGAGGUUGCUUCACCCGCUGACCAUGUUCCAGCGCUUCACCAGCC` the bound/input enrichment was 0.15 ratio.
For `ACGAGAUAUUUUUGCUCAGAGAAGGGAUGUUUGAGCGGAUUCCUGAUAUAGUUGUAUGGCCAACAUGUCAUGAUGAUGUAGUUAAGAUUGUGAAUCUAGCUUGCAAAUAUAACCUUUGUA`, the bound/input enrichment was 0.344 ratio.
`GGCGCCAAGGGGAUCCGCACGCUGCUCUUUGCUCUGAUGAUGUCCCUUCCUGCGCUGUUUAACAUCGGCCUCCUGCUUUUCCUGGUCAUGUUCAUCUACGCCAUCUUUGGGAUGUCCAAC` gave a bound/input enrichment of 0.0878 ratio.
For `AUCCUCUCUGGAACAUCAGACCUGCUCCUUACCUUCGAUGAGGCUGAGGUCCGUAAAAUUAUUAGAGUUUGCAAAGGAAUUUUGGAAUAUCUUACAGUGGCAGAGGUGGUGGAGACUAUG`, the bound/input enrichment was 0.625 ratio.
`ACGAAGAGCGCGCGGGUCAAAGGCCUUAGUUUUCAUCCUAAAAGACCCUGGAUCCUGACCAGUUUACACAAUGGGGUCAUCCAGUUAUGGGACUAUCGGAUGUGCACCCUAAUUGACAAA` has a bound/input enrichment of 0.273 ratio.

Block 3 — technique: RNA Bind-n-Seq; molecule type: RNA; matrix: in vitro; concentration: 365 nM; baseline: no-protein control; reading: higher = stronger binding
Target: RNA binding protein fox-1 homolog 2, RRM domain, GST-SBP tag (RBFOX2, Homo sapiens, UniProt O43251-10, residues 100-194)
Setting: natural RNA segment, single round, ends assumed
All sequences stand within: GGGAGUUCUACAGUCCGACGAUC … UGGAAUUCUCGGGUGCCAA
Target sequence (chain): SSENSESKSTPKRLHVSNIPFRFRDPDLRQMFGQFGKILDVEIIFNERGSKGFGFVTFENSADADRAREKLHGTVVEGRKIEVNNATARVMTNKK
`UAUUUAAAAGAAAAGAAAAAAAAGAACCCAACCACACAAAGAACAAAACAAAUAGCCAACAAACAGGAAUUCAGGGUCGCUUUGCUUGCUCUCUGUGCUCUGUGGUGGCU`: “RBNS enrichment (R)” 0.931.
`UAUAGUUGCUCUAUCUCAGAUAACUUAUGUUCAAAAGGAGAAUGAAGCCGGGCAUGGUGGCGCAUGCCUUUAAUCCCAGCGCUUGGAGGCAGAGGCAGGUGGAUUUCUGA` — result for “RBNS enrichment (R)”: 0.454.
For `CUUUAUUUCAAGAAAUGCAUAGAUAAGGGAGAAGAAAGGCUUCAAGGAUUCAUGGUUAAGAAGUGUGUAUGUUCUGAAGUGAAGGACCAGUAAGAAAUACAAGCCAGGCC`, “RBNS enrichment (R)” read 2.3.
For `UCCCUGUACGAGGAUGACAUCACCUUCUGAUACCCUGCCCUAGUCCCCCACCUUUGACUUAAGAUCCCACACCUCACAAACCUACAGCCCAGAAACCAGAAGCCCCUAUA`, “RBNS enrichment (R)” read 1.2.
For `UUCCACGGCUGGAUACCUGUGUGUCUCCAUAAAAGUCCUGUCACCAAGGACGUUAAAGGCAUUUUAUUCCAGCGUCUUCUAGAGAGCUUAGUGUAUACAGAUGAGGGUGU`, “RBNS enrichment (R)” read 0.335.
For `GACAGGCAGACAGACAUGAACAUUACUGAUGUGCUUUUCCGACCUGCUAUGUGCAGGCAGGCAGGGGUUAUCUUCCUGGGUCUCACAGACUUUCAUGGUUUUCCUUACCC`, “RBNS enrichment (R)” read 0.367.
For `ACAAGCAGAUUGGUUGAACCUUAUUUAAUGAGGAGUAACAGGCUGUUUUUAAGUGUUUGCCUGUGGCUACUUCCGUUCUAUAGCUCAAGAAUAUGCCAUUACAUCAUAGU`, “RBNS enrichment (R)” read 0.237.
Under “RBNS enrichment (R)”, `GGUAGGGGAGGUAUCCAUUCAUAAAAUGAAUGUGGGUGAAGCCGCCCUAAGGAUUUUCCUUUAAUUUCUCUGGAGUAAUACUGUACCAUACUGGUCUUUGCUUUUAGUAA` is recorded as 0.314.
Under “RBNS enrichment (R)”, `CAAGCCGCUUAACCUUGCUAAGCCUCUGUUUUCUCAUAUGUCAAAUGGUGAUAAUAAUGCCUACCUCCCGAGGUUGUUGUAAGAAUUAUAAGCACAAAUGUAUGUAAAGU` is recorded as 0.644.
For `CUGAGGAAACCAUGUUCAGAAGAGAAUAAAUGGACCGCCUUCAGGCAAGGGGGGAGCACUGCCUUCAGGCAAGGGGGGAGCACUGCCUUCAGGCAAGAGGGAGAGUGGGA`, “RBNS enrichment (R)” read 0.409.
`GUACAGAUGUGUCUCAGUUGUGAAGGUCUAUUCCUGGCUGCACAGUCCCCAUCCGCUCAGUCAUCUUACCCUGUGACUGCUCUCAGCCCUGAAGAAUCCACAACCAUCCU`: “RBNS enrichment (R)” 0.312.
Under “RBNS enrichment (R)”, `CCGGACCAGACGGACACAGGGAGAAGCUAGUUUCUUUCAUGUGAUUGAAAUGAUGACUCUACUCCUAAAAGGGAAAAAACAAUAUCCUUGUUUACAGAAGAGAAACAAAC` is recorded as 0.395.

Block 4 — technique: protein binding microarray; molecule type: double-stranded DNA, one strand shown; matrix: in vitro; concentration: not given; baseline: not given; reading: higher = stronger binding
Target: Histone acetyltransferase KAT6A, winged helix 1, GST fusion (KAT6A, Homo sapiens, UniProt Q92794, residues 1-85)
Setting: 8-mer, flanks averaged, mean of 2 arrays, mostly near background
Target sequence (chain): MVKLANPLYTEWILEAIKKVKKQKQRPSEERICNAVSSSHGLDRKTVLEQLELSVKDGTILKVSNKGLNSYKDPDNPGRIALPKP
`GAGATAAA` has an E-score of -0.0752.
For `AGAAGCCG`, the E-score was 0.297.
`GGATTAAC` has an E-score of 0.109.
The E-score of `AGCGAGTG` is reported as 0.0259.
`ACTGCCGA` has an E-score of 0.117.
The E-score of `GAGCAACC` is reported as -0.0103.
With `ACTCGGTG` the E-score was -0.0253.
`GTGCTTTA` has an E-score of -0.196.
For `ACCTCAGT`, the E-score was -0.239.
The E-score of `AACTCTGG` is reported as -0.27.
`TAGCTAAA` gave an E-score of -0.125.
For `ATGCTTAC`, the E-score was 0.00391.
`GAGAATAA` has an E-score of -0.238.
The E-score of `AATCGCCA` is reported as -0.0365.
The E-score of `CGTGGCGA` is reported as 0.136.
With `AGTGACGC` the E-score was 0.0585.
For `GCGTTGAC`, the E-score was 0.0241.
For `AGCCTGAT`, the E-score was -0.19.
The E-score of `AAAACGCC` is reported as 0.104.
The E-score of `GAGCTATA` is reported as 0.00453.
For `ACCCGGCC`, the E-score was 0.336.

Excerpt of the above (block 1):
`GACGATTTCCTTTTCCTGACGTGCTAG` — result for “fitted relative affinity”: 0.897 z-score.
For `GCCGGTCTCGGTATCGGGACGTGCTAG`, “fitted relative affinity” read 5.48 z-score.
`TTAGGTTTTGGTTCCGGTTAGTGCTAG`: “fitted relative affinity” 5.64 z-score.
`TTTGTCATCTATAATGGATATGTGCTA`: “fitted relative affinity” 0.105 z-score.
`GACGGTTTCCCTCTCCTGACGTGCTAG`: “fitted relative affinity” 1.45 z-score.
Under “fitted relative affinity”, `GACGGACTGCGTATCCTGACGTGCTAG` is recorded as -0.574 z-score.
`TTAGGTCTCGGTAACGGTTAGTGCTAG` — result for “fitted relative affinity”: 3.75 z-score.
